Measurements collected from several papers.
Parts stem from different laboratories: compare values within a part only.
Sequence of UniProt Q07912 (whole entry, looked up): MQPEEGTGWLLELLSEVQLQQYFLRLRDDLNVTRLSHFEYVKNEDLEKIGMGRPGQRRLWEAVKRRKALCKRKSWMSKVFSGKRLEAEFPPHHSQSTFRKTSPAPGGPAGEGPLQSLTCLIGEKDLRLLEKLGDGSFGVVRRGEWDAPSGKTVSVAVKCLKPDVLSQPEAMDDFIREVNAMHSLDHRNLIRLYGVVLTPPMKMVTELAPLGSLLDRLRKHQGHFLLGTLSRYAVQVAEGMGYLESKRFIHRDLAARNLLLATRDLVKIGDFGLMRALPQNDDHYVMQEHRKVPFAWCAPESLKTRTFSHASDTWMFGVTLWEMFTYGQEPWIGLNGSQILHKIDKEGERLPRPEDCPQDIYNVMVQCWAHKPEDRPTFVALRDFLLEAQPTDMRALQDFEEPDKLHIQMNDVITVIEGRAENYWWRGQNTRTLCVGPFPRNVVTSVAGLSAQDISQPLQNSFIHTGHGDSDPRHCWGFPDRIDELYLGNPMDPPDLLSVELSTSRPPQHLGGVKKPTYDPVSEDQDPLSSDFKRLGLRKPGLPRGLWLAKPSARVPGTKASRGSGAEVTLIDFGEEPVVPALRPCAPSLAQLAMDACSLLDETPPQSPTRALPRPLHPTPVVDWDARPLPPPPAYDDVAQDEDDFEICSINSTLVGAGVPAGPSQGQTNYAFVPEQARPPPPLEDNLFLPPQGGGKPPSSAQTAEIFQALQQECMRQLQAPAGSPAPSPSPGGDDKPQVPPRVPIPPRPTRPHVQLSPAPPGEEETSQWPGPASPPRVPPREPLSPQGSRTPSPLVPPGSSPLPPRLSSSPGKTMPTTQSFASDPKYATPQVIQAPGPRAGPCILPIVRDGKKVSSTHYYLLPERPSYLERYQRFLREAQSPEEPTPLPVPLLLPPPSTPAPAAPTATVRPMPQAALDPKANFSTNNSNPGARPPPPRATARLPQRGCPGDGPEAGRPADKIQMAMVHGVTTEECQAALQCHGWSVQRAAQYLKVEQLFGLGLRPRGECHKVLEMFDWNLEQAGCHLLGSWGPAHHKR
Sequence of UniProt Q16584 (whole entry, looked up): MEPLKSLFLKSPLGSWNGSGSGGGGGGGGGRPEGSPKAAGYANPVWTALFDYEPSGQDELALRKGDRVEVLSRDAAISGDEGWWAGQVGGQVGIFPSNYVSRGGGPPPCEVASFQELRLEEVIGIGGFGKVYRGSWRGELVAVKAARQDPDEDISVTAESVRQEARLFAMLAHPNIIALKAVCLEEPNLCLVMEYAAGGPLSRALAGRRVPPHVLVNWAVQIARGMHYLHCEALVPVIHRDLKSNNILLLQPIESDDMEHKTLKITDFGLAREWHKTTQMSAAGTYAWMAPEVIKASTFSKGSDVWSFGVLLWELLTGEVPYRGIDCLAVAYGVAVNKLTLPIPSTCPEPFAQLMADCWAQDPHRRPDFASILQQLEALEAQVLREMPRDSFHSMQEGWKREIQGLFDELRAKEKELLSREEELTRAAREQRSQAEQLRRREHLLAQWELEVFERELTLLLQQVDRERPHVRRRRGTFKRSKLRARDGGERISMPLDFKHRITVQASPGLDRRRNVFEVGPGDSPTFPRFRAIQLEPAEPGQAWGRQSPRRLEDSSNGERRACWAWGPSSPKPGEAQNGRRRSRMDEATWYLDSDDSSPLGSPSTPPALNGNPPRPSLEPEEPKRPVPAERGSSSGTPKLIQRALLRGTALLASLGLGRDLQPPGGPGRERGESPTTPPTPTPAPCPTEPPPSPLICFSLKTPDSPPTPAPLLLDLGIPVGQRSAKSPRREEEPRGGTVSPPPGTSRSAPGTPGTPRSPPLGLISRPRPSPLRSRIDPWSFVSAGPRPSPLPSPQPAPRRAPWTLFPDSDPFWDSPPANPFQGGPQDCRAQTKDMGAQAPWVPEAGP
Sequence of UniProt Q9NYY3 (whole entry, looked up): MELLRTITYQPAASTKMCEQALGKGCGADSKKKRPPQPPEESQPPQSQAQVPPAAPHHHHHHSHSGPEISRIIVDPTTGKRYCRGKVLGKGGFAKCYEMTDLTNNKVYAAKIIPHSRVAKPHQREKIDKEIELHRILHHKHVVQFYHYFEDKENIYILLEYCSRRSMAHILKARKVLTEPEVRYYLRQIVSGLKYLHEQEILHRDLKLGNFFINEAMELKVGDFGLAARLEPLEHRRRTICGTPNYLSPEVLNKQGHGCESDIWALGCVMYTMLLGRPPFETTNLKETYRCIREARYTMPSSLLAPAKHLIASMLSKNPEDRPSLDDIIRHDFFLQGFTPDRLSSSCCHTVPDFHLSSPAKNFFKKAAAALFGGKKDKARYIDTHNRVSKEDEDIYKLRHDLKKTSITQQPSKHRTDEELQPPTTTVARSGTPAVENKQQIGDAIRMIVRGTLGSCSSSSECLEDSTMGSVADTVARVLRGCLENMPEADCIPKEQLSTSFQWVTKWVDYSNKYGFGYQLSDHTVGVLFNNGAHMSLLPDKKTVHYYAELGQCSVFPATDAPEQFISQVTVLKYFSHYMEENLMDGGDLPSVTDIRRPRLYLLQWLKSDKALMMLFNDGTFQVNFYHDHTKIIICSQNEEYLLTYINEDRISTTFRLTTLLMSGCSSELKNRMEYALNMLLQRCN
Sequence of UniProt Q14289 (whole entry, looked up): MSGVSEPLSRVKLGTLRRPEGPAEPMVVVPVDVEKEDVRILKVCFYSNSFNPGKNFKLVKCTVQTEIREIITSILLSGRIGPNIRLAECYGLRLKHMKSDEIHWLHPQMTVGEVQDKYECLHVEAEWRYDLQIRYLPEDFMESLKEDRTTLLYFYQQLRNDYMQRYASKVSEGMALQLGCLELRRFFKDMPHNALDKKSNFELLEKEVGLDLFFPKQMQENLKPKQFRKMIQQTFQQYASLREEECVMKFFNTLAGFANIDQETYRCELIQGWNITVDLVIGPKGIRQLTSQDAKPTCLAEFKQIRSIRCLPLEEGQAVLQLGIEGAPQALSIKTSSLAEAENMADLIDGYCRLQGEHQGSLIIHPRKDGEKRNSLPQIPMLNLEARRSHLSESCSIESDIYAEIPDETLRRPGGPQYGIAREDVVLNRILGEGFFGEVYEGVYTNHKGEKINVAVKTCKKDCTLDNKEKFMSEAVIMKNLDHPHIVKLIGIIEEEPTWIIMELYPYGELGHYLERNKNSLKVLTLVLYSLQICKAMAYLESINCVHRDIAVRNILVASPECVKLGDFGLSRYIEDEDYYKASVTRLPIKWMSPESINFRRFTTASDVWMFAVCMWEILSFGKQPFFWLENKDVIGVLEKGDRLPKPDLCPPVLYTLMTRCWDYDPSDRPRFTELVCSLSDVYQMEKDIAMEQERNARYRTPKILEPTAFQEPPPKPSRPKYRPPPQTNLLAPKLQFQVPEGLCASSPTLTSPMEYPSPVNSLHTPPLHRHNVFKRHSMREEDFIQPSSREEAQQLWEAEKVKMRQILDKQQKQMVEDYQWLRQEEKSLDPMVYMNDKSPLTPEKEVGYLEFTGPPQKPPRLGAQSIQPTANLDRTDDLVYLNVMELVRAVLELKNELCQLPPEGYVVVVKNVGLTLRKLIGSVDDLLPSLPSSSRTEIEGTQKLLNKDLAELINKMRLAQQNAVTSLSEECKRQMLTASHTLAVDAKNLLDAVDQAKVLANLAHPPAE
Sequence of UniProt P51812 (whole entry, looked up): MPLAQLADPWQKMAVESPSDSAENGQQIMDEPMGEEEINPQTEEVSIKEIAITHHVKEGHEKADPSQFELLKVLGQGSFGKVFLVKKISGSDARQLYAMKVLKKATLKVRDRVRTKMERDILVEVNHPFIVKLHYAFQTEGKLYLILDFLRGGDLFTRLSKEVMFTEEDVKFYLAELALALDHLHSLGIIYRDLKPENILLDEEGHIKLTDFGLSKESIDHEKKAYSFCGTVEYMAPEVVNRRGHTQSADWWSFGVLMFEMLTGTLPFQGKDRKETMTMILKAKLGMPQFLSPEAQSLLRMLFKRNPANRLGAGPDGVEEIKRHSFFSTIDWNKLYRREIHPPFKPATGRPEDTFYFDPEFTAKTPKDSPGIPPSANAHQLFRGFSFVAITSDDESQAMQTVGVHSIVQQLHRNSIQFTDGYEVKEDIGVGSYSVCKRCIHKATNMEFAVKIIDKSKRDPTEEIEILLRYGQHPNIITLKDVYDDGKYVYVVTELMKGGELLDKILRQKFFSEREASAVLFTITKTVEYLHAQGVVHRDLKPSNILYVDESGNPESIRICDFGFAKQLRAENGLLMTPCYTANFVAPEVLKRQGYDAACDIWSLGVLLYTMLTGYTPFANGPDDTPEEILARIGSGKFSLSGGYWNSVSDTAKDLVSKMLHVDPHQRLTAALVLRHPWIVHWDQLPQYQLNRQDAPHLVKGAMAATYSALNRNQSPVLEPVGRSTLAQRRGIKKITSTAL

Set 1
Structure (SMILES): Cc1cc(Nc2cc(N3CCN(C)CC3)nc(Sc3ccc(NC(=O)C4CC4)cc3)n2)[nH]n1
Tested at: 0.5 µM
target | observed | mode | with | baseline | remaining activity
Protein-tyrosine kinase 2-beta (PTK2B, Homo sapiens, UniProt Q14289) | enzyme activity | inhibitor | – | control | 95.5%
Proto-oncogene tyrosine-protein kinase ROS (ROS1, Homo sapiens, UniProt P08922) | enzyme activity | inhibitor | – | control | 30.2%
Activated CDC42 kinase 1 (TNK2, Homo sapiens, UniProt Q07912) | kinase activity | – | ATP 10 µM | untreated | 66.4%
Cyclin-dependent kinase 2, with cyclin A (CDK2, Homo sapiens, UniProt P24941) | enzyme activity | inhibitor | – | control | 87.8%

Set 2
SMILES: Cc1cc(NC(=O)c2cccc(S(F)(F)(F)(F)F)c2)cc(-n2ccn3nc(-c4cccnc4)cc23)c1
Observed: cell-free assay
Method: competition with immobilised ligand
Tested at: 1 µM
target | remaining binding [%]
Ribosomal protein S6 kinase alpha-3, N-terminal kinase domain (RPS6KA3, Homo sapiens, UniProt P51812) | 66.6
Activated CDC42 kinase 1 (TNK2, Homo sapiens, UniProt Q07912) | 100
Serine/threonine-protein kinase PLK2 (PLK2, Homo sapiens, UniProt Q9NYY3) | 100
Tyrosine-protein kinase ABL1, non-phosphorylated (ABL1, Homo sapiens, UniProt P00519, H396P) | 66.9
Mitogen-activated protein kinase kinase kinase 11 (MAP3K11, Homo sapiens, UniProt Q16584) | 100

Set 3
Target: Hepatocyte nuclear factor 3-alpha (Foxa1, Mus musculus, UniProt P35582, residues 1-468, full length assumed)
Method: EMSA with sequencing
Molecule type: double-stranded DNA, one strand shown
Sample: in vitro
Tested at: 10 and 20 nM
Setting: whole designed probe, mean of two concentrations, ends assumed
Baseline: negative control set to 0
Direction: higher = stronger binding
Shared flanks, not repeated: GTGAGCGGTGCCCATTGATGGGGAAC … TTTCACTGGGATCGTGGGGAC
Target sequence (chain): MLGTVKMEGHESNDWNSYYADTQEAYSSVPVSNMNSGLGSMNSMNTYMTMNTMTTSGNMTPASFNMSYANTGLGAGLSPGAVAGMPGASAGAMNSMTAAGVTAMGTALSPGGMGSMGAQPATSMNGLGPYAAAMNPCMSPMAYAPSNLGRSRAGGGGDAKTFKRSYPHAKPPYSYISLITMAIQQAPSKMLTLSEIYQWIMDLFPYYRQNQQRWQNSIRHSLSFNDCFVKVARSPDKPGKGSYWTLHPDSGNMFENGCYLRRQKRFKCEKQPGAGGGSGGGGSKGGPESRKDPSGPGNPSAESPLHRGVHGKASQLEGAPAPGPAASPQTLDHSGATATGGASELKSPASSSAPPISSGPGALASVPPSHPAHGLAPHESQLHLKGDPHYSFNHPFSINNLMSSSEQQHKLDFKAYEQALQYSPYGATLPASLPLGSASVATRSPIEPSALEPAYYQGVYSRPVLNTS
Strand | normalised bound fraction [ratio]
ATCTTCCCCCTCTTCCTTGCCCCACCAGCTCACCTACGGGGGTTATTTGCACAAAGGAAAATAAATAAAGCCGGCATTCGTTAACGCAGTTCTGGCGCAAACTGCTGTTTGCTCTGGATCTAACATGGTCCTTTGGCGACGCCAGGCTCCGGGAGAGCAAAGCACCGTGTCAGGGCCATGATCCGGGGTGGCC | 0.384
TGTGAGCCACTGCACCCAGCCAAGTGGTTTGTTTATATTCAAGAGTGAGGCACTAAAATGCTAATTGGAAGCTTTGTGTACATGGGTTGGGCTAAATGACTTATATGACTCCTCACAGTGAAACAGGTCAATGGTCAATGGTCTCATTGTCTGAAGTGTTATCTGAGTTCATTGTCTCATGACCAAGAAAATT | 0.197
GACATGTTAAGGCTTGTTCTATTTATTAGAAAATATATAAAGAGTTCTTGGCTTAAGAACTCTTCTGGCTATCAGCTCCCTGATGTGAAAAAAGTAAATAGCAAGGGGTAGCATGGAGTCTTACTCCCGTGTGACAGACAGCTTAAGAAAGACAATTGGACATCATGTGACTACATGATTCAAGCTAAAGTCC | 0.234
AACCCAGACAGTGACATCTTACAGGGGACTTCTTCTTCTTCCCCCATTGTATGTCTCCTCCTTTTATGTTTATCTAATCTATTCACATAACTATGTAATCTAGTACATTTACTAAAGTTTCTTCATGTTCATAAAATAATAACATACAGAATTATAAAAGTAGAAAGGTAAGGCCAAGCATGGGGGCTCACGC | 0.177
CATTTTTCTATGAAGTTATAGTCACTTTCACATTTACTGCAAGATGTTTTTCGGATCTCTCCACTGCCGCCTTGTGGCTTTAGAACACAAATCAGATTACTTTGTTTTGTGACATATTTGAATAAAACCATGTATCCTGTTTAGGGCTGGCAATGTGGTAGTGGGAGGGTTGGAAATTGGATACAAAAATTGA | -0.0182

Other studies, line by line
Target: SMN1, full length (human, UniProt Q16637, residues 1-294)
Sequence of UniProt Q16637 (whole entry, looked up): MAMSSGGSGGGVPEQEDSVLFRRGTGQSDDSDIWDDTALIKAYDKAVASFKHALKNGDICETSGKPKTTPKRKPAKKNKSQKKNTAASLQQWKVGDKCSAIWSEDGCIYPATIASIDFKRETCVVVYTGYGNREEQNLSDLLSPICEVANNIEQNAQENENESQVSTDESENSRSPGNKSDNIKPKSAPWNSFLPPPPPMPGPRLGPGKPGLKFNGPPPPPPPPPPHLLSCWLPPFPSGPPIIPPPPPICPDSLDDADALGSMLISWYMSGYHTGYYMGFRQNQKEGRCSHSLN
Method: nitrocellulose filter binding
Molecule type: RNA
Sample: in vitro
Tested at: 100 nM
Setting: whole RNA, constant flanks, single concentration, ends assumed
Baseline: round 9 selected pool
Direction: higher = stronger binding
Strand | relative RNA binding
GGGCUCACCACGCACCGUGCGUAGGUUUUGUGCUGGUCGGCCUCACCACGGCAAGCU | 21 % of pool
GGGCUCACCACGCACGUGCGAUAACGGGGUUAAGACGGUGCCUCACCACGGCAAGCU | 68 % of pool

Repeated from above (set 2):
target | remaining binding [%]
Ribosomal protein S6 kinase alpha-3, N-terminal kinase domain (RPS6KA3, Homo sapiens, UniProt P51812) | 66.6
Tyrosine-protein kinase ABL1, non-phosphorylated (ABL1, Homo sapiens, UniProt P00519, H396P) | 66.9
